Measurements gathered from unrelated publications.
Protocols differ between the studies behind these lines. ± gives the spread as reported.

Substance | organism | test | system | setting | EC50 [nM]
O=C(NCc1cccs1)[C@@H]1CN(C(=O)c2cccnc2)CCN1c1ccc(Cl)c(Cl)c1 | SARS-CoV-2 | viral replication | USA-WA1/2020 | – | 1000
NC12CC3CC(CC(C3)C1)C2 | Influenza A virus | viral replication, plaque size reduction | MDCK, A/Swine/Indiana/27-1112/2010 (H3N2) | – | 34500 ± 4300
C[C@H](NP(=O)(Nc1ccn([C@H]2CS[C@@H](COP(=O)(N[C@@H](C)C(=O)OCc3ccccc3)N[C@@H](C)C(=O)OCc3ccccc3)O2)c(=O)n1)N[C@@H](C)C(=O)OCc1ccccc1)C(=O)OCc1ccccc1 | HIV-1 | viral replication | CCRF-CEM, IIIB | 4 d | 16000 ± 5300
CCC(C(=O)Nc1sc(C(N)=O)c(C)c1C(=O)OC)c1ccccc1 (centres unmarked) | vaccinia virus mD4 surrogate | viral replication, plaque | BSC-1 | 24 h | 21000 ± 3200
Cn1cnc(Cn2c(=O)[nH]/c(=N\c3cc4cn(C)nc4cc3Cl)n(Cc3cc(F)c(F)cc3F)c2=O)n1 | SARS-CoV-2 | cytopathic effect | Vero E6, BA.2.3 | – | 240
CC(C)(C)[C@H](NC(=O)C(F)(F)F)C(=O)N1C[C@H]2[C@@H]([C@H]1C(=O)N[C@H](C#N)C[C@@H]1CCNC1=O)C2(C)C | SARS-CoV-2 | plaque area | Vero-AT, recombinant L152F/Q269H | – | 32.1
CC(C)(C)[C@H](NC(=O)C(F)(F)F)C(=O)N1C[C@H]2[C@@H]([C@H]1C(=O)N[C@H](C#N)C[C@@H]1CCNC1=O)C2(C)C | SARS-CoV-2 | replicon reporter (NanoLuc) | HEK-293T, Omicron BA.1 replicon, 3CLpro S144A/E166A | 48 h | 2220 ± 410
hexadimethrine | prion | PrPSc level, ELISA | ScN2a-cl3 dividing | third replicate above 10 µM | > 10000

Repeated from above:
Substance | organism | test | system | setting | EC50 [nM]
hexadimethrine | prion | PrPSc level, ELISA | ScN2a-cl3 dividing | third replicate above 10 µM | > 10000
